Measurements collected from several papers.
A part holds a random share of what one study measured. Positions count from the first letter of the parent shown.

Sample 1
Target: CCNB2, cyclin fold, Cln2 fusion (human)
Technique: yeast growth competition, sequencing
Matrix: yeast
Setting: weak parent motif
Baseline: not given
Direction: higher = stronger binding
Parent: MASTL docking peptide (human); PMIAKNLMCELDE; partner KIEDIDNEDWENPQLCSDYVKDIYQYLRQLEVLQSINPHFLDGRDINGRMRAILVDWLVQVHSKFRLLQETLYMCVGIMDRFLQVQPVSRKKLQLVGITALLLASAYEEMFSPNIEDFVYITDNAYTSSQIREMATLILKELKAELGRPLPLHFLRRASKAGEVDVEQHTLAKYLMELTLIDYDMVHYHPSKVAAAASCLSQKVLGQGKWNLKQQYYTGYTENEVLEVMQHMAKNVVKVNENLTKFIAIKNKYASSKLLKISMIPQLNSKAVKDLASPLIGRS
`C9W`: “normalised enrichment score” 0.909.
`L7C` — result for “normalised enrichment score”: -0.426.
`M2C`: “normalised enrichment score” 0.835.
`I3C` — result for “normalised enrichment score”: 0.589.
`E10P` — result for “normalised enrichment score”: 0.0932.
`D12I` — result for “normalised enrichment score”: 0.265.
`M8T`: “normalised enrichment score” -0.109.
`A4K`: “normalised enrichment score” 1.09.
Under “normalised enrichment score”, `M8L` is recorded as 1.11.
`L7F`: “normalised enrichment score” -0.293.
`N6C`: “normalised enrichment score” 0.201.
Under “normalised enrichment score”, `L11R` is recorded as -0.134.
For `E10C`, “normalised enrichment score” read 0.54.
For `C9V`, “normalised enrichment score” read 0.718.
`C9E` — result for “normalised enrichment score”: 0.568.
`M2I` — result for “normalised enrichment score”: 1.12.
`A4L` — result for “normalised enrichment score”: -0.422.
`L11Y`: “normalised enrichment score” 0.664.
`K5W`: “normalised enrichment score” -0.0735.
For `L11T`, “normalised enrichment score” read -0.0268.
For `L11Q`, “normalised enrichment score” read 0.00266.
`L11F`: “normalised enrichment score” 2.87.
`N6V` — result for “normalised enrichment score”: 0.206.
`M8W`: “normalised enrichment score” 0.491.
`A4M`: “normalised enrichment score” 0.207.

Sample 2
Target: Ras GTPase-activating protein-binding protein 1, RRM domain (G3BP1, Homo sapiens, UniProt Q13283)
Sequence of UniProt Q13283 (whole entry, looked up): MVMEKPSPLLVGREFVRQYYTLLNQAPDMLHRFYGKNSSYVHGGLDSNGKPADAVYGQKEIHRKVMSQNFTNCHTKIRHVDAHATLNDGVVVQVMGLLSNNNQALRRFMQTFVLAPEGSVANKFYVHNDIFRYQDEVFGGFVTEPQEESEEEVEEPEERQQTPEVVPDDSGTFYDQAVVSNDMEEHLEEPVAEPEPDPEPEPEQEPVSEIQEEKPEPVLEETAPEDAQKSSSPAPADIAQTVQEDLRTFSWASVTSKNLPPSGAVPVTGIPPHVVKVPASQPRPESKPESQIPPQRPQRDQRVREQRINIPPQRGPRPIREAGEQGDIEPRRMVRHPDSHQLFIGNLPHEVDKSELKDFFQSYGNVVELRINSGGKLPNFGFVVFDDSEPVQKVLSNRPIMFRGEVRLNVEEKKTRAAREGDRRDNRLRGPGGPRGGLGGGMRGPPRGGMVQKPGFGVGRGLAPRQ
Technique: RNA Bind-n-Seq
Form: RNA
Matrix: in vitro
Tested at: 1 µM
Setting: whole 134-nt RNA, ends assumed
With: 150 mM KCl
Baseline: input library
Direction: higher = stronger binding
All sequences stand within: GGGAGUUCUACAGUCCGACGAUC … UGGAAUUCUCGGGUGUCAAGG
The log2 enrichment of `GCAGGAAGUAAAAACAAAUGGAAAUGCUUCGGAUAGUGGCAGGGGUGGGGGUUGCUAAGGAAAGGGUGGGAUGAAAGUGGGUAAAGAGUU` is reported as 1.28.
With `UCCUGUGCUACACAUCGUAUGUACCGAAUCAAAUUUAAAUUUUUUUAAAUUUUUUUAAAAAAGUAUUAUGUUACGCCGUUCGGAUCUGCA` the log2 enrichment was -0.173.
`UCCUCAAGUCCUGUGCUACACAUCGUAUGUACCGAAUCGGCGGGCGGGGCGGAAAGUAUUAUGUUACGCCGUUCGGAUCUGCACUUCCAG` has a log2 enrichment of -0.321.
`CCUGUGCUACACAUCGUAUGUACCGAAUCGGGUUUUUUGGGUUUUUUGGGUUUUUUGGGGAAAGUAUUAUGUUACGCCGUUCGGAUCUGC` gave a log2 enrichment of -0.198.
For `UGCCUGGCCCAGUGCUGGGUUUGCCUUGUUGACGAUGCGCUUGGAUUGUUAAGGACACCGAUGUUCAGAACCCGGGAAGAGUCAUCUUAA`, the log2 enrichment was -0.334.
For `CAAGUCCUGUGCUACACAUCGUAUGUACCGAAUCGGAAAGGAAAAAGGUUUUUGGAAAGUAUUAUGUUACGCCGUUCGGAUCUGCACUUC`, the log2 enrichment was -0.201.
For `UUUCAAAGCCAAAGGGCCUUGUGACGCCCCUCUUGCCCACCUCCCUCCACACCGUGUCCUCCCCUAUAUGACAAUCAAUGUGACCUCUCU`, the log2 enrichment was 0.0784.
The log2 enrichment of `CACAGACAACACGCACCCACACAGACACAGAGGGAAUGGGUUGGGAUGGGGACAGGGUGCACAGCAGGGCGGGGUAGGACCCCAGCCCCU` is reported as 0.0375.
The log2 enrichment of `ACCAUGCAGGUGGGCGUCUUUGGGAAGUGGGGCAAGGGGGGGAUAGGGAGGGGGGUAACACUUUGGGAACAGGUGGUCCCAGGUCGUUUC` is reported as -0.518.
The log2 enrichment of `UGUGCUACACAUCGUAUGUACCGAAUCGGAAAAAAAGGGGAAAAAAAGGGGAAAAAAAGGGGAAAGUAUUAUGUUACGCCGUUCGGAUCU` is reported as 0.309.
With `ACCAUGCAGGUGGGCAUCUUUGGGAAGUGGGGCAAGGGGGGGAUAGGGAGGGGAAAAACACUUUGGGAACAGGUGGUCCCAGGUCGUUUC` the log2 enrichment was -0.373.
The log2 enrichment of `GCAGGAAGUAAAAACAAAUGGAAAUGCUUCGGAUAGUGGCAGGGGUGGGGGUUGCUAAGGAAAGAGUGGGAUGGGAGUGGGUAAAGAGUU` is reported as 0.817.
`AGUCCUGUGCUACACAUCGUAUGUACCGAAUCGGGUUUUUUUGGGAAAGGGAAAGGGAAAGUAUUAUGUUACGCCGUUCGGAUCUGCACU` gave a log2 enrichment of 0.247.

Sample 3
Target: Histone acetyltransferase KAT6A, both winged helices, GST fusion (KAT6A, Homo sapiens, UniProt Q92794, residues 1-181)
Technique: protein binding microarray
Form: double-stranded DNA, one strand shown
Matrix: in vitro
Tested at: not given
Setting: 8-mer, flanks averaged, mean of 2 arrays, mostly near background
Baseline: not given
Direction: higher = stronger binding
Target sequence (chain): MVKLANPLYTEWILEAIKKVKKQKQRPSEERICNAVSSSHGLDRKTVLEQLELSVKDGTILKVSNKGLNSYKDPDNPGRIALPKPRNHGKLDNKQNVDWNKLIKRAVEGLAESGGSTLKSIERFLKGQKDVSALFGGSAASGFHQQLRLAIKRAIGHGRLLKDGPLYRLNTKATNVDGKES
With `ATTATCAC` the E-score was -0.0199.
`GCAGCCAA` has an E-score of -0.102.
`ATCATGTC` has an E-score of 0.00564.
With `TCCATGCA` the E-score was -0.0169.
The E-score of `CTTACAAC` is reported as -0.119.
The E-score of `GATATGCA` is reported as -0.00143.
With `AAAGAAGC` the E-score was 0.013.
For `GATAACGA`, the E-score was -0.145.
`AGTGCGGC` has an E-score of 0.229.
With `CCAGCCCA` the E-score was -0.228.
`CGTACAGA` gave an E-score of -0.0768.
With `AAAGGGAG` the E-score was -0.164.
With `ACCACCAT` the E-score was -0.0696.
`TCGTCGCA` has an E-score of 0.102.
The E-score of `TAGATCGA` is reported as -0.0939.
With `CAAAGCGC` the E-score was 0.312.
`CCCTCAAG` gave an E-score of -0.246.
`GCGCGTCA` gave an E-score of 0.316.
For `CACGAGGC`, the E-score was -0.191.
`CCCGTAAC` gave an E-score of 0.185.
`GATTATGA` gave an E-score of -0.127.

Single results of other studies
With `PhoQ, residues 284 288 289 292 302 303 AGHLVA` the fold induction was 1.08 (PhoP, residues 12 14 15 18 19 SYFRT (Escherichia coli, UniProt P23836); Sort-seq, item: YFP reporter; E. coli; PhoQ-PhoP variant library, with: 10 µM Mg2+; baseline: high Mg2+ state, higher = stronger signaling).

For quick reference, copied from above (sample 3):
For `GATAACGA`, the E-score was -0.145.
`AGTGCGGC` has an E-score of 0.229.
With `CCAGCCCA` the E-score was -0.228.
`CGTACAGA` gave an E-score of -0.0768.
